# Experimental data pooled from the literature.
# A part holds a random share of what one study measured. Substitutions count along the parent as printed.

# Sample 1
# Target: RING finger protein unkempt homolog, zinc fingers 1-6, GST-SBP tag (UNK, Homo sapiens, UniProt Q9C0B0, residues 30-357)
# UniProt Q9C0B0, sequence (30-357, looked up): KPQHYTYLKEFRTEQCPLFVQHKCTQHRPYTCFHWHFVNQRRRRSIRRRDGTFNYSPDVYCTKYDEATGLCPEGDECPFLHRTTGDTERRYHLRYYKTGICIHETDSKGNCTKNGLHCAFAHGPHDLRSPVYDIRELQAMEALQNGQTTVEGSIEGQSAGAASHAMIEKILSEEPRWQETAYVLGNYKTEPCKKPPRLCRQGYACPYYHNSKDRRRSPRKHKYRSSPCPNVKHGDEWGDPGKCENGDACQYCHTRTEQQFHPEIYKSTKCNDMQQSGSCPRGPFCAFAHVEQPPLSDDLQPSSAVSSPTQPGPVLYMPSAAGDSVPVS
# Method: RNA Bind-n-Seq
# Form: RNA
# Sample: in vitro
# Tested at: not given
# Notes: RNA with constant flanks, human-mouse chimeric sites, ends assumed
# Relative to: input RNA pool
# Reading: higher = stronger binding
# Shared flanks, not repeated: GGGAGUUCUACAGUCCGACGAUC … CAACAGAGGAUUGAGCAUCA
Strand,bound/input enrichment
CGCUGGCCCAAGCUGAUGGACUCUGAUGGCCUCCAUCUCUCAGGCACGUGUGCCUUCUCUUAGUUAUUGUUUUCGGGAUGUUAUGAACAGUAUCAUGGUGGUUUGAAAGCACCAGCUUUG,0.521 ratio
AGUGUGCAGGAAUUCAUGACCUUUACAAGUCAACUGAUUGUGGAACGCUCGGGGAAAGGCAGCAGAGCUUCUGUCAAAGAACAAGACUAUCUUUGCCAUGUCUACGUCCGGAAUGAUAGU,0.227 ratio
CUGAGGAUACCACUGAAGAGACCUUAAAAGGAGUCAUUGAGGGCUCUGUUCGUGCAAGAAUAGUCACUGAUCGGGAAACUGGUUCUUUCCAAAGGGUUGGUUUUGUAGACUUUAAUAGUG,0.886 ratio
CCCACGCCUCCUCUCCCACAGGCCCAAGAUAUAACCCACCAGUGCCUUUUGUCUUCCUGUCAGCUCUGUCAAUCACGCCUGUCCUCUCACGCCCACACCAAGUGCCCAAAGUGGGGAGGG,0.862 ratio
CGGAGCCCUCCUCUCCCACAGGCCCAAGAUAUAACCCACCAGUGCCUUUUGUCUUCCUGUCAGCUCUAAUCAAUCAUCCUGUCCUCUCACGCCCACACCAAGUGCCCCCACCCCUAAGGG,0.791 ratio
AGAGAAAUGAGAAAGAAUCUUACACAAGAAGAGAUGCAAAGAAUGUCUACUAGAGUCCUUUUGGCGACUCUUUCCAUCCCUAUUACUCCUGAGCGAACUGAUAUUGCUCGACUUCUGGAU,0.206 ratio

# Sample 2
# Target: ABI1, truncated, D143A, DHFR fusion (Arabidopsis thaliana)
# Method: DHFR PCA, deep sequencing
# Sample: yeast
# Notes: methotrexate growth selection, single substitutions
# With: (+)-ABA 58 µM
# Relative to: wild-type fitted maximum
# Reading: higher = stronger binding
# Parent: PYL1, truncated, DHFR fusion (Arabidopsis thaliana); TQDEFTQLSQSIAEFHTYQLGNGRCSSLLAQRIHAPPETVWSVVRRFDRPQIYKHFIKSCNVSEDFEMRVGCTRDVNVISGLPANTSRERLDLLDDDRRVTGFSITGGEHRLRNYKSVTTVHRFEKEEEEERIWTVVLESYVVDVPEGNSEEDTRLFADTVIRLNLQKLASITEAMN
Variant,relative binding score [%]
S42F,44.1
K126A,101
D153M,5.31
S42V,46.4
S11T,80
N177L,77.9
R90P,-7.6
I172S,39.2
R69I,91.7
E89Q,13.3
N22P,100
R74E,-3.14
A84C,52.5
D97H,83.5
V76C,77.8
R90S,52.7
V76G,-5.41
V62W,45.2
V76W,-1.91
S80N,33.8

# Sample 3
# Target: CCND2, cyclin fold, Cln2 fusion (human)
# Method: yeast growth competition, sequencing
# Sample: yeast
# Notes: strong parent motif
# Relative to: not given
# Reading: higher = stronger binding
# Parent: E2F1 docking peptide (human); PPVKRRLDFETDH
Variant,normalised enrichment score
F9E,0.393
D8M,1.32
P2S,1.51
R6S,0.826
K4I,2.02
V3D,-0.0181
R5K,0.619
P2V,1.03
F9M,0.167
P2T,1.52
K4A,3.24
P2A,0.886
K4D,0.364
D8V,1.72
L7K,0.0966
R6M,0.678
L7D,-0.0887
L7W,0.22
P2R,1.3
F9P,-0.0775
T11K,1.63
L7T,0.271
E10T,1.88
T11W,1.91
F9R,0.147

# Mixed results
Substance,target,assay,system,conditions,scale,quantity,value
"PhoQ, residues 284 288 289 292 302 303 SIHLQL","PhoP, residues 12 14 15 18 19 TTLRV (Escherichia coli, UniProt P23836)","Sort-seq, refers to: YFP reporter",E. coli,"PhoQ-PhoP variant library, with: 10 µM Mg2+","relative to: high Mg2+ state, higher = stronger signaling",fold induction,8.53

# Some of these lines once more (sample 2):
Variant,relative binding score [%]
R90P,-7.6
D97H,83.5
N177L,77.9
R90S,52.7
S11T,80
